Measured values gathered from unrelated publications.
A part holds a random share of what one study measured. Positions count from the first letter of the parent shown.

Set 1
Target: CRIPT, C-terminal peptide
Technique: DHFR complementation, deep sequencing
Sample: yeast
Notes: single substitutions, model-inferred values
Baseline: wild type
Reading: higher = weaker binding
Quantity: binding free energy change
Parent: ERBIN, PDZ domain 1 (human); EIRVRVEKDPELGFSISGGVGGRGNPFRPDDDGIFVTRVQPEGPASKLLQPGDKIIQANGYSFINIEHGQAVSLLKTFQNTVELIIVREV; partner TKNYKQTSV
P51N: 0.416 kcal/mol
R38E: -0.0465 kcal/mol
F14D: 0.98 kcal/mol
V6Y: 1.81 kcal/mol
E83G: 0.166 kcal/mol
G19I: 1.73 kcal/mol
R28E: -0.00626 kcal/mol
Q79F: 0.0543 kcal/mol
E83H: 0.281 kcal/mol
P10N: -0.374 kcal/mol
D31M: 1.08 kcal/mol
V36A: 0.521 kcal/mol
I55D: 0.843 kcal/mol
R23C: -0.525 kcal/mol
G33F: 1.2 kcal/mol
F63T: 0.281 kcal/mol
S15T: -0.17 kcal/mol
D9G: -0.323 kcal/mol
F63M: -0.0893 kcal/mol

Set 2
Target: RING finger protein unkempt homolog, zinc fingers 1-6, GST-SBP tag (UNK, Homo sapiens, UniProt Q9C0B0, residues 30-357)
Technique: RNA Bind-n-Seq
Form: RNA
Sample: in vitro
Tested at: not given
Notes: RNA with constant flanks, human and mouse sites, ends assumed
Baseline: input RNA pool
Reading: higher = stronger binding
Quantity: bound/input enrichment
Shared flanks, not repeated: GGGAGUUCUACAGUCCGACGAUC … CAACAGAGGAUUGAGCAUCA
Target sequence (chain): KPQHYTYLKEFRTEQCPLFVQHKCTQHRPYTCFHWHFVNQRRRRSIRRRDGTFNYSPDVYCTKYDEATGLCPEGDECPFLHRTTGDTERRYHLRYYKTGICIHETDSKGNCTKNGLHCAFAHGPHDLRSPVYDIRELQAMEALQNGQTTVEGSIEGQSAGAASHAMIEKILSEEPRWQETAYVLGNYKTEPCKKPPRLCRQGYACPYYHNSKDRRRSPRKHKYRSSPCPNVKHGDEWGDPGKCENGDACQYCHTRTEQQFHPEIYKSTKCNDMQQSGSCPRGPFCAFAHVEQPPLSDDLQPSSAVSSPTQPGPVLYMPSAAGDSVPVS
GACUGGGAGCAGACUCAGAAAAUCUACAAUUGUCACGUGCUGCUGAACAGCAAAGGGGCAGUAGUGGCCACUUACAGGAAGACACAUCUGUGUGACGUAGAGAUUCCAGGGCAGGGGCCU: 0.148 ratio
UGCAUGCCUGUUCAAUUCUUUUGUUUCUUCUCCUUCCCCCUCCCCCUACCUCCUUCCCCUCACUCCUCCCCUCCUUCGCUCGCUCAACCUCUUUUGUUCAGUAUGUGUAACUUGAAGCUA: 1.32 ratio
UCCCUUUCCUUCUCUACCGAUUUUGCACUUUUCUCUAUGCUCACCACCAAGUGUAAUCAAUAACAAGCACUGACAAUACAUAGCAAUAGUGAAAUCUGAAAUAACUAAGAAUUAGGUACU: 0.645 ratio
AGCAGCGGAGAGUUUCUGGGGCGCACCUCCAAGAGCUGGGGUCUGAUCUUGCUCUUCUACCUAGUUUUUUAUGGGUUCUUGGCUGCACUCUUCACAUUCACAAUGUGGGCCAUGCUCCAG: 4.81 ratio
AAAACCAUCAAGCUAUGGAAUACCCUGGGUGUGUGCAAAUACACUGUCCAGGAUGAGAGCCACUCAGAGUGGGUGUCUUGUGUCCGCUUCUCGCCCAACAGCAGCAACCCUAUCAUCGUC: 0.116 ratio
UGGAAGCUUUGCUGAAAACCUUUCAUUUCUUCUGGAAGCUUUGCAAAAAGGUGACCGGACUAGCAGUUGCCCAGUGAUCUUCAUACUGGAUGAAUUUGAUAUUUUUGCUCAUCAGAAAAA: 0.587 ratio
CCUUCCCACCUCUUCCUAUGCAACAAGAUCCGAUACUUGGACUUAUCGUACAAUGACAUUCGAUUUAUCCCCCCUGAAAUUGGAGUUCUACAAAGUUUACAGUAUUUUUCCAUCACAUGU: 0.508 ratio
CGGUUUGCAGUCCCACCAGCACUCGGCAGUAAUCUGGCUGACAAUGUCAUGAUUACUGUAGAUAUUAUUCCUUCUGGUUGGAAUUCAACUGAUGGGAAAAAUGAUAAAGCUAAAAGUGCA: 0.0699 ratio
UUAAAUAUCUCUGGCUCAAGUGUUCACCCAGUAAAAGAAAGAUCCAGAAAGCACUGUUUUUAGCAUUACGUAUCUGUGUGUUACUGCUGUGUUAUUUACACUGUUUUGUAUUGUACAAUA: 0.113 ratio
ACAGCCAUGGCAACUAGUCUCACGAACGUAGGAAAUUCAUUUAGUGGCCCACCUAAUCCUUUAGUGUCUAGAUCUAGUAAGUUUCAGAACUCAUCAGUAGAAGAUGAUGAUGACGUUGUU: 84.1 ratio
CGGCCCAUGCAGCAAAUGCAGCCCACUGCGCCAAGGAACAGCAAUUUGCGUGAAUUACCCAUAGCGCCGUCACACGUGAUAGAAAUGAGCAGCAGCCGCUGCUCUGCCACGCCCUCAGCA: 0.256 ratio

Set 3
Target: Sal-like protein 4, full length isoform A (SALL4, Homo sapiens, UniProt Q9UJQ4, residues 1-1053)
UniProt Q9UJQ4, sequence (whole entry, looked up): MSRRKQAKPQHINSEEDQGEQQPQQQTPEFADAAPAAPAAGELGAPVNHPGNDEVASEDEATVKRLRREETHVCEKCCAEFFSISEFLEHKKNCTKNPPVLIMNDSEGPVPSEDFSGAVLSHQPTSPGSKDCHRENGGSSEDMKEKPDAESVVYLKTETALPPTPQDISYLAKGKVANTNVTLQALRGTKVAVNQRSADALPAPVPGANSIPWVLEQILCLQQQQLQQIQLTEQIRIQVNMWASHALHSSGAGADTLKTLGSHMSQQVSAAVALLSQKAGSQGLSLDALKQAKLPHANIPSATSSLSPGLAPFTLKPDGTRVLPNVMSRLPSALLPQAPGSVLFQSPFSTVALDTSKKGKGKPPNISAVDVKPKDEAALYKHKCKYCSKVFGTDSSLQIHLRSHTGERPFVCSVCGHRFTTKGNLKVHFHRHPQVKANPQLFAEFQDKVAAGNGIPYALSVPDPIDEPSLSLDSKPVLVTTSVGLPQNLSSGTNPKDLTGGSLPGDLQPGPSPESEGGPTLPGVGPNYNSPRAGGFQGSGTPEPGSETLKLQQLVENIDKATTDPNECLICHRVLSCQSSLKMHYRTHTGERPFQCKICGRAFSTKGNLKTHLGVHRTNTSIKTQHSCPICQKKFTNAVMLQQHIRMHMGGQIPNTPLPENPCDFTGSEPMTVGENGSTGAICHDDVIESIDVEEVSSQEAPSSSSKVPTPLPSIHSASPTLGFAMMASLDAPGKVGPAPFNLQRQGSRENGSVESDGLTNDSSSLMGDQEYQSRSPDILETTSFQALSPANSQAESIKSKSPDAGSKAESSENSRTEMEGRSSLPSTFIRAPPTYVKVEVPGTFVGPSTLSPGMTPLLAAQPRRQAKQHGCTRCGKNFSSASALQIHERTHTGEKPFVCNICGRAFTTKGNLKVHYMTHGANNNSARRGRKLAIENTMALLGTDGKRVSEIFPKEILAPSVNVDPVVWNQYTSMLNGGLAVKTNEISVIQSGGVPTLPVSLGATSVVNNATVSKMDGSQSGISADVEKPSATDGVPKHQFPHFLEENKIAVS
Technique: universal PBM
Form: double-stranded DNA, one strand shown
Sample: in vitro
Tested at: 600 nM
Notes: 8-mer, flanks averaged, mean of replicates
Reading: higher = stronger binding
Quantity: E-score
AGGGAGGC: -0.25
AGTTTCAC: 0.143
CCCACATC: -0.0182
CAGATCAG: 0.0174
GTTTACTA: 0.22
CCCTGTAA: -0.0243
AAATTTCA: 0.237
AGTACCGG: -0.255
CCCTGGGA: -0.343
AGTTCGGA: -0.14
TAGCCAGA: -0.047
CAGGCATC: -0.0911
GACGAGCC: -0.334
GATGGAGC: -0.166
ACTGTGTG: -0.125
AATAGAGC: 0.104
AGTCACTC: -0.085
ACTTCTCT: 0.141
GTATCAGA: 0.0579
AGGGGAAA: -0.016
GAAGTCGA: 0.0236
GCGGGTGA: -0.261
GGCGAGAA: -0.111
AGTTCGAC: -0.173
GGGAATTA: 0.225

Set 4
Target: ABI1, truncated, D143A, DHFR fusion (Arabidopsis thaliana)
Technique: DHFR PCA, deep sequencing
Sample: yeast
Notes: methotrexate growth selection, single substitutions
Together with: (+)-ABA 0.032 µM
Baseline: wild-type fitted maximum
Reading: higher = stronger binding
Quantity: relative binding score
Parent: PYL1, truncated, DHFR fusion (Arabidopsis thaliana); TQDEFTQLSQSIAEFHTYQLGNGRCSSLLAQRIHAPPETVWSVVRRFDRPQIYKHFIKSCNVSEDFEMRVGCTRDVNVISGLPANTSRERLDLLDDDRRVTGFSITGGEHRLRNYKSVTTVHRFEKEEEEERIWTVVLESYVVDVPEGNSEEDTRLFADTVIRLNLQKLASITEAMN
E128Q: 28%
K168A: -8.1%
T119C: 1.98%
D97V: 27.8%
A175K: 24.5%
E4N: 1.14%
R74F: -3.05%
R99K: 46.3%
R88K: 31.7%
Q167F: -5.24%
E38M: 3.48%
E4L: 27.3%
L169Q: 5.52%
P37A: 20.3%
P36R: 10%
Q2F: 59.1%
N85W: 42.9%
D153L: -2.09%
T1I: 32.5%
E129F: 11.8%
R88G: -0.35%

Set 5
Target: RNA binding protein fox-1 homolog 2, RRM domain, GST-SBP tag (RBFOX2, Homo sapiens, UniProt O43251-10, residues 100-194)
Technique: RNA Bind-n-Seq
Form: RNA
Sample: in vitro
Tested at: 365 nM
Notes: natural RNA segment, single round, ends assumed
Baseline: no-protein control
Reading: higher = stronger binding
Quantity: RBNS enrichment (R)
Shared flanks, not repeated: GGGAGUUCUACAGUCCGACGAUC … UGGAAUUCUCGGGUGCCAA
Construct (chain): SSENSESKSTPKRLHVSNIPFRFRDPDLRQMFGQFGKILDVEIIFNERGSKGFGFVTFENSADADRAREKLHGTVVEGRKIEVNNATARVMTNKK
AGAACAACCCACCCGUCGCCCUUCUCCGUAUGCUGCCUGCGCCAGAAGAGCUUUGCUGGGCCCUGGCUUCCCUGCCCUCGCCUUCACCUCUGUCAGCAGGUGGCCUUGCC: 0.449
CAGACUCAAGGAGACAACCACCUCAACUGGGUCAUGUGGCAUGCCUGUGUAUGUGUGUAACAGAAUUCUGAUUGUUAGACUGUAAUGCUAUUCCUCUAUGGGAGAAAAAA: 4.86
ACUGCAAAGCCAUUCCUGACCUGUAAACCUCAGCUCUCCAUCUCUAUAAGAGGUAUAGCCUGGGCUAAUACCGUCCAAGUUACAACUCCUUGCUUGCUUUCUGUUCCUUC: 0.959
GUACCAGAUGUCCCAUCCGGCAUCUUUCCAUUGAAUCUUGUAGUGCAACUUGCGUAUCAUCUUCUCCACCUCCAAGUGUCUGAAUGCUUACACAAAUAAAUUUUAUAACU: 0.341
GACACAGCCUUUUUGAUCAUUUCUUUGAUGUGAAAAGCAUCUUUGGUUAUCAGUUAAAUUGAGGUGGACAUUAUUUCCCCAAUUUCACAACAGGAUUCACAUUGUUAAUU: 0.333
AGUGUCCCUUGGGUCACACAGCUAAAGCCGAGGUGACCAGUUGUACCCCGAGUGCCAGGCUUGUGAGAUGAGACCAAGAGGGAGGAGGGGAAGGACUCCAUGGGCCAUCG: 0.814
AGGCGUGGGGCUGCCAGGCUCGGGCUUGGCACACCAAAGGCCAGCUGCAUGUCAGUUUCUCUCCUUCCACAGUUAUGUUGGCUUCCAUGCUUUUUCAGAUUGUGUGGUAG: 1.24
UAAGAGUUAUAACUAUGUAAACAUUGUAUAAUGAUAUGAAAUAAAACGCACAUUUAGGACAUUUUCUAAUCUGGUGGUCCUGUCGUCUGUAUGGUUCUGUUGUCGUUAUU: 0.485
AGGGCCACCGCCACAGCCCGGCAGAGGGGCACACUCUGGAGACCUUGCUGGCAGUGCUAGCCAGGAAACAGAGUGACCAAGGGACAAGAAGGGACUUGCCUAAAGCCACC: 0.217
CUUUUCUUUUUUUAACCCUUACUCUCCCUGCAGACUCAACCAUGACUGUUCUGCGUUGGAACAGAUGGAGUGAGAAACCCUACAGCCUGCCCGAACCCAGACUCUCCCCC: 1.03
AAAUCACUCUCAGCCCUGUAUUUGGUACCGGUGUGUCCCAGGUCAAUGUACAGAACUGCAGCCAAGGAGCUAAGAUGUAACAGAGAGAGAGAAGAGCUGGUGAACCAUAU: 0.554
GCCAUGCCCUAAAACACUCACACCUGUAAACCCAGUCCUUAGGAGACUGAGGCAGGAGGAUCCCUGUGAGUUCCAGGCCAGUCUAAGCUGCAGAGGGAAAGCGUCUCAAA: 0.385

Set 6
Target: CCNB1, cyclin fold, Cln2 fusion (human)
Technique: yeast growth competition, sequencing
Sample: yeast
Notes: weak parent motif
Baseline: not given
Reading: higher = stronger binding
Quantity: normalised enrichment score
Parent: CDKN1A docking peptide (human); SKACRRLFGPVDS
R5F: -0.179
K2M: 0.824
G9V: 0.426
P10R: 0.442
V11Y: 0.359
C4M: 0.0271
F8R: 0.253
L7H: 0.598
F8D: 0.227
P10C: 0.803
D12M: 0.0166
A3C: 0.95
D12N: 0.3
R6S: 0.241
P10G: 0.136
C4F: -0.11
A3Q: 0.0833
C4E: 0.0906
P10S: 0.2
F8E: -0.396
L7A: 0.39
D12I: -0.0353
R5K F8L: 0.191
R6C: 0.227
K2Y: 0.701

Some of these lines once more (set 3):
AGTACCGG: -0.255
ACTTCTCT: 0.141
AGGGGAAA: -0.016
CAGGCATC: -0.0911
CCCACATC: -0.0182
GCGGGTGA: -0.261
GTTTACTA: 0.22
AAATTTCA: 0.237
AATAGAGC: 0.104
GACGAGCC: -0.334
AGGGAGGC: -0.25
GAAGTCGA: 0.0236
GGGAATTA: 0.225
GTATCAGA: 0.0579
CAGATCAG: 0.0174
